Published values gathered from unrelated publications.
Numbered parts are unrelated; each lists some results of a single study. Several values in a cell are separate wells, animals, samples, runs or records.
UniProt P51812, sequence (whole entry, looked up): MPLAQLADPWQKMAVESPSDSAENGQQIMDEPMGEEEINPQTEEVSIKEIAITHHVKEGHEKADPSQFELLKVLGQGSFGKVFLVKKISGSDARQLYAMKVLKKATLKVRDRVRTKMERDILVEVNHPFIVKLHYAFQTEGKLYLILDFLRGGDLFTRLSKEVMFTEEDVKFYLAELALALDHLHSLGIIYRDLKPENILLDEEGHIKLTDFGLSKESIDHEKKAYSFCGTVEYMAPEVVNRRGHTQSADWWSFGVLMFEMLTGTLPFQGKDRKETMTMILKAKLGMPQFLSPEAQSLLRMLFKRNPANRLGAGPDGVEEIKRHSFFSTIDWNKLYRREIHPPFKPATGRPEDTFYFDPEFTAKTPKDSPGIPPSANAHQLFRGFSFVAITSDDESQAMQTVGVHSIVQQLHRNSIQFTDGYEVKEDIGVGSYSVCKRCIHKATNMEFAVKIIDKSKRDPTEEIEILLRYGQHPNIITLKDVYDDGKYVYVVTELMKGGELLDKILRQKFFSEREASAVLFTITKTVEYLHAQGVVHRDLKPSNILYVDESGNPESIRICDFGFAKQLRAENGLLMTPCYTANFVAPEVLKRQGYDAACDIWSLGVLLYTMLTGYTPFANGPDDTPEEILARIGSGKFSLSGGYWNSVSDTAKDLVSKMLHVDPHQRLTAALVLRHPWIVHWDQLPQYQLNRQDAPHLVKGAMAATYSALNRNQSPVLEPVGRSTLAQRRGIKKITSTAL
UniProt Q8N5S9, sequence (whole entry, looked up): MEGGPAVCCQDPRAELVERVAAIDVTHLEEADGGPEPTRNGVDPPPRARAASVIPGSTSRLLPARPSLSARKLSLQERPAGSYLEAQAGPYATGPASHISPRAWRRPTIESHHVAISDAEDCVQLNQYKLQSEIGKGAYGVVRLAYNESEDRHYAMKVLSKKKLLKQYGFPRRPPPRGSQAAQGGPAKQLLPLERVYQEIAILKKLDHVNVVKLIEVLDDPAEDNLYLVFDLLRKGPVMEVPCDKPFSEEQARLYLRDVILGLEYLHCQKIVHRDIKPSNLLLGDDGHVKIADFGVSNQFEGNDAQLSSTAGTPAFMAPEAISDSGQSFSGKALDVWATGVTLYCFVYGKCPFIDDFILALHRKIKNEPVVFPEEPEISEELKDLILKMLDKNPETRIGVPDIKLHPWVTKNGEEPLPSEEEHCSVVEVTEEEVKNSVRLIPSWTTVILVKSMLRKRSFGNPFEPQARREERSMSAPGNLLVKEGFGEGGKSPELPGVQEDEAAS
UniProt Q9HBY8, sequence (whole entry, looked up): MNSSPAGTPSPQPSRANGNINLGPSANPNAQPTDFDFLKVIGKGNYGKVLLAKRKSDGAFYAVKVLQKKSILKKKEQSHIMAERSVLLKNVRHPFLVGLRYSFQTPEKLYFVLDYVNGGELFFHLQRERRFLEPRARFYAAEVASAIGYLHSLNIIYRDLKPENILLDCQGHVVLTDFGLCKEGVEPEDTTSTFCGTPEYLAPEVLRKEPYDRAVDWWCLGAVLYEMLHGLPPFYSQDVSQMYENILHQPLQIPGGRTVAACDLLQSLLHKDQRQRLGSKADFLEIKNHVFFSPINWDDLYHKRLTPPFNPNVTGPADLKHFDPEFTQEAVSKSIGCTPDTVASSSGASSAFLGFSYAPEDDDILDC
UniProt P41240, sequence (whole entry, looked up): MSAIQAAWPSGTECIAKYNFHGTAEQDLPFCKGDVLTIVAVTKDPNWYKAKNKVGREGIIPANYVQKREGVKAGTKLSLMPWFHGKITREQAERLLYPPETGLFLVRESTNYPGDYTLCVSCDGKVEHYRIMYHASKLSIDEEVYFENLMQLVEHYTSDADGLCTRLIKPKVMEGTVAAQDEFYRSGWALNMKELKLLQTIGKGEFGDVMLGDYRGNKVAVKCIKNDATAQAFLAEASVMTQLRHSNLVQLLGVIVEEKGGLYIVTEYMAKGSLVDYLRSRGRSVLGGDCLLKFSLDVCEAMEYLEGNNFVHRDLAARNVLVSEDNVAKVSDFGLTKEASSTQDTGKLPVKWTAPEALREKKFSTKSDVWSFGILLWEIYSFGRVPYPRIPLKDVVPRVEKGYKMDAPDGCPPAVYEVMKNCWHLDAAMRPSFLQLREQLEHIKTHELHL

Study 1 — method: RNA Bind-n-Seq; molecule type: RNA; matrix: in vitro; tested at: not given; notes: RNA with constant flanks, ends assumed; baseline: input RNA pool; reading: higher = stronger binding
Target: RING finger protein unkempt homolog, zinc fingers 1-6, GST-SBP tag (UNK, Homo sapiens, UniProt Q9C0B0, residues 30-357)
All sequences stand within: GGGAGUUCUACAGUCCGACGAUC … CAACAGAGGAUUGAGCAUCA
Construct (chain): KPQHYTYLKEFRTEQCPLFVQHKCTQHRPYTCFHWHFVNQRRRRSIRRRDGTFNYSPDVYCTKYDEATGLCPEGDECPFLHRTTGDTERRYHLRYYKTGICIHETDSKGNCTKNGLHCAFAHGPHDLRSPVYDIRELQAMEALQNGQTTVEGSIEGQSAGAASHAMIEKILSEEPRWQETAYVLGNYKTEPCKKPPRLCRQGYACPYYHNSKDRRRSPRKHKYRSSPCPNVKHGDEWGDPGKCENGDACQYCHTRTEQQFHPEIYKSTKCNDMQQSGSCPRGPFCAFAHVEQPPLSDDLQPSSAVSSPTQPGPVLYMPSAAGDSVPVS
`UUAUGUCUUAUAAUCCUGCAUCACUUCCAUCCUAUCCAGUCAUAUCUAAUGUAGAAAAAUCCGUUUCCAGUGAAAGUAAUAUGUAGUGCUUUUAUGAUAUUUGUGUGCAAUAUCCCCUCU` has a bound/input enrichment of 7.42 ratio.
For `GAAAGGGGUUCAUCUCAGAGACCAUAUCGAGAAUCUUCUGACAAUGAAGGUAGGCGUACAACCCGGAGAUUGCUGUCACGGAUAGCUUCUAGCAUGUCAUCUACUUUUUUCUCACGAAGA`, the bound/input enrichment was 0.121 ratio.
With `AUGAAGCCAAAUAUUGAACCUCCUGAGAAUGUGGAGUGGAGUGGUGCUGAAGCCUCAAUGUUCCGAGUCCUCAUUGGCACUUACUAUGACAAUUUCUGUGCCAUUGCUAGGUUAAUUGGG` the bound/input enrichment was 0.518 ratio.
For `CCUCGAGAACGGGACUAUUUAAAAACAGUCUUGCACAGGAUUUAUGGCAAGUUUCUCGGGCUCCGAGCAUUUAUCCGAAAACAAAUUAACAAUAUUUUUCUAAGGUUUGUUUAUGAAACA`, the bound/input enrichment was 0.561 ratio.
For `AUUAUAAGAGAAACAGAAAAUGAUGACCUUACCAAUGUAAUUCAGAAAAUGAUCUGUGAAUACCGUGAAGAAGUUACUCCUAUUGCAGUAGAAAUGACACAACAUUUGGCAAUGACAUUU`, the bound/input enrichment was 0.179 ratio.
The bound/input enrichment of `AGAACAAACAAAGGGCUGCAACUACGGCAUGGCAAUGACCAACGCGUGUUCCGUUCCGAGUUUGUCUCAAACCAAGAAUUCACCGAAAGUGAGUUUAUGAAGUGGAAAGAAGCGAUGUUC` is reported as 0.0967 ratio.
The bound/input enrichment of `GCGUGACUCGUAGGUGAGAACGCCGAGCCGCCGCCGCCGCCGAGAAGCCCUGUUAACGCUUCCGGGAGGAGAGUCUGGUGCCGACAAGAUGGCGGACGGGGAGCUGAACGUGGACAGCCU` is reported as 0.0893 ratio.
With `AGGUUGGGUCAUGACCCCUACAGGUUAGGCCAUGAUGCUUACAGGUUAGGACAAGACCCUUACCGAUCCGGCCAUGAUCCCUACAGACUAACUCCGGAUCCCUAUAGGGUAUCACCUAGG` the bound/input enrichment was 0.155 ratio.

Study 2 — method: protein-binding microarray; molecule type: hairpin DNA; matrix: in vitro; tested at: not given; baseline: not given; reading: higher = stronger binding
Target: Hepatocyte nuclear factor 3-beta, forkhead domain (FOXA2, Homo sapiens, UniProt Q9Y261, residues 142-269)
Notes: whole hairpin DNA, median over replicate spots
Construct (chain): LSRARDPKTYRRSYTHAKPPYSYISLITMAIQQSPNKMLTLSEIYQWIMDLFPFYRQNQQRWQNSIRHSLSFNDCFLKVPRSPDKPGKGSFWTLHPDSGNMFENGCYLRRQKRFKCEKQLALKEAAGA
The median fluorescence of `GAGGCCATGCAAACCGCGCCTCCTGGCGCGGTTTGCATGGCCTCACACTC (5mC at 15 29)` is reported as 3530 a.u.
For `GAGGCCATGTATCCAACGCCTCCTGGCGTTGGATACATGGCCTCACACTC`, the median fluorescence was 3150 a.u.
With `GAGGCCATGTACCCAACGCCTCCTGGCGTTGGGTACATGGCCTCACACTC` the median fluorescence was 3260 a.u.
`GAGGCCATGCAAAAAACGCCTCCTGGCGTTTTTTGCATGGCCTCACACTC` gave a median fluorescence of 2940 a.u.
For `GAGGCCGTGTAAACAACGCCTCCTGGCGTTGTTTACACGGCCTCACACTC (5mC at 38)`, the median fluorescence was 4950 a.u.
For `GAGGCCATGTCGCCAACGCCTCCTGGCGTTGGCGACATGGCCTCACACTC (5mC at 33)`, the median fluorescence was 3500 a.u.
With `GAGGCCCTGCAAACAACGCCTCCTGGCGTTGTTTGCAGGGCCTCACACTC (5mC at 7)` the median fluorescence was 3430 a.u.
With `GAGGCCATGTGACCAACGCCTCCTGGCGTTGGTCACATGGCCTCACACTC` the median fluorescence was 3310 a.u.

Study 3 — observed: enzyme activity; mode: inhibitor; tested at: 0.5 µM; baseline: control
SMILES: COc1cc2c(Nc3ccc(Br)cc3F)ncnc2cc1OCC1CCN(C)CC1
RPS6KA3 (Homo sapiens, UniProt P51812) — remaining activity: 97.8%.
CAMKK1 (Homo sapiens, UniProt Q8N5S9) — remaining activity: 90.4%.
The remaining activity was 122% (SGK2 (Homo sapiens, UniProt Q9HBY8)).

Further values, each from its own experiment
The remaining binding of `CC1=C(C#N)[C@@H](c2ccc3[nH]nc(C)c3c2)C(C#N)=C(c2ccc(Cl)cc2)N1` is reported as 100% (CSK (Homo sapiens, UniProt P41240); cell-free assay, competition with immobilised ligand; 1 µM).
The dose-normalised AUC(0-t) of `COc1ccc(-c2c(Nc3ccccn3)[nH]c3c(C4=CCCCC4)c(-c4ccccc4)nn3c2=O)cc1` is reported as 1170 ng·h/mL/mg and 1210 ng·h/mL/mg and 1270 ng·h/mL/mg (human, plasma; oral, 200 mg twice daily).

Excerpt of the above (study 3):
RPS6KA3 (Homo sapiens, UniProt P51812) — remaining activity: 97.8%.
CAMKK1 (Homo sapiens, UniProt Q8N5S9) — remaining activity: 90.4%.
The remaining activity was 122% (SGK2 (Homo sapiens, UniProt Q9HBY8)).
